Results pooled from the literature.
Compare with care: the assays were run in different laboratories. ± gives the spread as reported.
Target: Dual specificity mitogen-activated protein kinase kinase 7 (MAP2K7, Homo sapiens, UniProt O14733)
Sequence (O14733 1-419, as in one of the studies): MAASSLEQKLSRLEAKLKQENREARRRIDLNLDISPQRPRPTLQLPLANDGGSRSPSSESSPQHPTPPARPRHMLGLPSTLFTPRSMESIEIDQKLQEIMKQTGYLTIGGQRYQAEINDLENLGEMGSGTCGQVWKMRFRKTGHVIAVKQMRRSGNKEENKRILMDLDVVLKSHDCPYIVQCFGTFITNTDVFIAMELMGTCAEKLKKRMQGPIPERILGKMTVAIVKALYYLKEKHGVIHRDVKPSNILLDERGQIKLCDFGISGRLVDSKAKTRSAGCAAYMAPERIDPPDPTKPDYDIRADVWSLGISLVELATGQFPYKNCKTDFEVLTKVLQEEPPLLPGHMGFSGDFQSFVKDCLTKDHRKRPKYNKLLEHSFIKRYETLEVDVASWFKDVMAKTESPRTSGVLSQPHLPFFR

Structure (SMILES)	assay	system	setting	scale	measurement	value
C=CC(=O)N1CCC(C(=O)NCC(=O)N2CCN(c3nc(-c4cnc(N)nc4C(F)F)nc(N4CCOCC4)n3)CC2)CC1	KINOMEscan		1 µM		remaining binding	98%
CNc1ncc2c(/C=C/C(=O)N3CCC(OC)CC3)nn(Cc3cccc(C(F)(F)F)c3)c2n1	kinase activity, inhibitor		1 µM	relative to: untreated control	remaining activity	88%
C#Cc1cccc(Oc2ccc(-c3nn([C@@H]4CCCN(C(=O)C=C)C4)c4ncnc(N)c34)cc2)c1	ABPP-SILAC		1 µM, 1 h	relative to: DMSO	SILAC ratio	20
C=CC(=O)N1CCC([C@@H]2CCNc3c(C(N)=O)c(-c4ccc(Oc5ccccc5)cc4)nn32)CC1	kinase activity, inhibitor, HotSpot radiometric		100 nM, with: ATP 10 µM		remaining activity	105.1 ± 0.2%
CCCOc1ccc(OC)c(F)c1C(=O)c1ccc(C(=O)N[C@@H]2CNC[C@H]2NC(=O)c2ccc3[nH]ncc3c2)cc1	enzyme activity		10 µM		remaining activity	107%
O=C(NC1CCC1)c1ccc2nc(-c3cccc(NS(=O)(=O)NCCN4CCCCC4)c3)cn2c1	enzyme activity		10 µM		remaining activity	100%
COc1ccc(F)cc1C(=O)NCc1ccc(-c2nn([C@@H](C)C(F)(F)F)c(N)c2C(N)=O)cc1	kinase activity, inhibitor, HotSpot radiometric		1000 nM, with: ATP at Km		remaining activity	103 ± 7.9%
CCN1CCN(Cc2ccc(NC(=O)c3ccc(C)c(/C=C/c4cnc5[nH]ccc5c4OC)c3)cc2C(F)(F)F)CC1		A-375	0.5 µM		inhibition	-14%
C=CC(=O)N1CCC[C@@H](n2nc(-c3ccc(Oc4ccccc4)cc3)c3c(N)ncnc32)C1	kinase activity, inhibitor, HotSpot radiometric		100 nM, with: ATP 10 µM		remaining activity	62.7 ± 0.6%
Cc1ccc(NC(=O)c2ccc(C)c(C(F)(F)F)c2)cc1C#Cc1nn(C2CCC(O)CC2)c2ncnc(N)c12 (stereo not shown)	enzyme activity		10 µM, with: ATP 10 µM		remaining activity	70%
C[C@@H](c1ccc(-n2cnc3c(N)ncnc32)cc1)N1CCc2nn(C)c(Cc3ccccc3)c2C1=O	KINOMEscan		0.1 µM	relative to: DMSO control	remaining binding	73%
CNCc1ccc(-c2cc(-c3nc(-c4ccc(S(=O)(=O)C(C)C)cc4)cnc3N)on2)cc1	enzyme activity		0.4 µM, with: ATP at Km		inhibition	0%
COc1cc(F)ccc1-c1ncnc(Nc2cccc(C[S@](C)(=N)=O)c2)n1	kinase activity		10 µM, with: 10 µM ATP		remaining activity	130%

Some of these lines once more:
Structure (SMILES)	assay	system	setting	scale	measurement	value
CCCOc1ccc(OC)c(F)c1C(=O)c1ccc(C(=O)N[C@@H]2CNC[C@H]2NC(=O)c2ccc3[nH]ncc3c2)cc1	enzyme activity		10 µM		remaining activity	107%
O=C(NC1CCC1)c1ccc2nc(-c3cccc(NS(=O)(=O)NCCN4CCCCC4)c3)cn2c1	enzyme activity		10 µM		remaining activity	100%
